Assay results of several laboratories.
Protocols differ between the studies behind these lines. “And” joins repeats or separate records; there may be more than shown. ± gives the spread as reported. In brackets after ≈: the same amount, converted by molar mass.
Chain of UniProt P35462 (whole entry, looked up): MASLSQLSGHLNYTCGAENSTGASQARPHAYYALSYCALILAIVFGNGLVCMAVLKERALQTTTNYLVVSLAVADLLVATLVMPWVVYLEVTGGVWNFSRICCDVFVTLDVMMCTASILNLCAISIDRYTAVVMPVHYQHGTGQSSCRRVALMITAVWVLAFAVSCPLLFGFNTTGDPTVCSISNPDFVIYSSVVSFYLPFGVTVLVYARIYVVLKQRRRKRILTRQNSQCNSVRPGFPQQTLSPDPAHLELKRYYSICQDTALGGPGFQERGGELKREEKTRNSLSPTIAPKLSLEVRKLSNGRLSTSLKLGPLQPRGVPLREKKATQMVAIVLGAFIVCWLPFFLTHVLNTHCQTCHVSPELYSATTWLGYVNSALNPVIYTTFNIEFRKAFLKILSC

SMILES	target or system	test	system	setting	scale	endpoint	value
COCC(=O)N1CCC[C@H](C(=O)NCc2nc(-c3ccc(C#N)cc3)cs2)C1	–	–	Sprague-Dawley rat, male, urine	intravenous, 1 mg/kg, 24 h	relative to: dose	urinary excretion	0.52%
CC(C)Oc1c(NC(=O)c2ccc(NC(=O)[C@H](CC(N)=O)NC(=O)c3ccc(/N=N/c4ccccc4)cc3)cc2)ccc(C(=O)N/N=C/c2ccc(C(=O)O)s2)c1O	–	absorbance	DMSO	40 °C, PSS to ground state relaxation	–	thermal half-life	6 h
O=C(Nc1cnccc1Cl)N1CCN(Cc2ccc3c(c2)OC(F)(F)O3)CC1	–	–	elderly men and women, plasma	oral, 100 mg once daily, day 10, normalized to 10 mg	–	dose-normalized Cmax	105 ng/mL
CNCc1ccc(-c2[nH]c3cc(F)cc4c3c2CCNC4=O)cc1	–	–	patients	oral, 360 mg twice daily, all grades	–	cough incidence	0%
N#Cc1ccc2c(c1)[C@H]1CCCN(C(=O)c3ccc4[nH]cnc4c3)[C@H]1C2	–	–	human	240 mg, end of trial	–	maximum ACTH level	10.8 pmol/L
O=C(Nc1nc2cccc(-c3ccc(CN4CCS(=O)(=O)CC4)cc3)n2n1)C1CC1	–	measured: nausea	human rheumatoid arthritis patients	oral, 75 mg once daily, 4 weeks, regardless of relatedness	–	treatment-emergent adverse events	0%
O=C1CC[C@H](N2Cc3cc(N4CCN(CC5CCN(c6ccc([C@@H]7c8ccc(O)cc8CC[C@@H]7c7ccccc7)cc6)CC5)CC4)ccc3C2=O)C(=O)N1	–	–	human	oral, 200 mg, together with: dabigatran etexilate 75 mg	–	participants with TEAE rhinorrhoea	4.2%
CC[C@H](C)[C@H](NC(=O)[C@H](Cc1ccccc1)NC(=O)[C@H](CCC(=O)O)NC(=O)[C@H](CCCCN)NC(=O)[C@H](C)NC(=O)[C@H](C)NC(=O)[C@H](CCC(N)=O)NC(=O)CNC(=O)[C@H](CCC(=O)O)NC(=O)[C@H](CC(C)C)NC(=O)[C@H](Cc1ccc(O)cc1)NC(=O)[C@H](CO)NC(=O)[C@H](CO)NC(=O)[C@@H](NC(=O)[C@H](CC(=O)O)NC(=O)[C@H](CO)NC(=O)[C@@H](NC(=O)[C@H](Cc1ccccc1)NC(=O)[C@@H](NC(=O)CNC(=O)[C@H](CCC(=O)O)NC(=O)[C@H](C)NC(=O)[C@@H](N)Cc1c[nH]cn1)[C@@H](C)O)[C@@H](C)O)C(C)C)C(=O)N[C@@H](C)C(=O)N[C@@H](Cc1c[nH]c2ccccc12)C(=O)N[C@@H](CC(C)C)C(=O)N[C@H](C(=O)N[C@@H](CCCCN)C(=O)NCC(=O)N[C@@H](CCCNC(=N)N)C(N)=O)C(C)C	–	RP-HPLC	pooled human male AB serum 25% v/v	2 mg/mL, 24 h, 37 °C	–	percent degraded	~80%
CC(=O)N=S(=O)(O)c1ccc(N/C=C2\C(=O)Nc3ccc4ncsc4c32)cc1	Cyclin-dependent kinase 2, with cyclin A (CDK2, Homo sapiens, UniProt P24941)	bio-layer interferometry (Octet RED)	–	298 K, CDK2-cyclin A complex, averaged	–	Kd	207 nM
CCOc1c([C@H](C)n2nc(C)c3c(N)ncnc32)cc(Cl)c(F)c1[C@@H]1CNC(=O)C1	–	–	rat plasma	5 ng/mL, 4 h, 10 °C, autosampler	relative to: nominal concentration	stability relative error	14.5%
Cc1cc2sc(N)nc2c2cccnc12	–	–	female BALB/c mice, plasma	intraperitoneal, 30 mg/kg	–	dose-normalised AUC(0-t)	1520 kg·ng·h/mL/mg
CN(C(=O)n1cnc(-c2cccnc2)c1)C1CCCCC1	–	–	Wistar rat, midbrain	oral, 10 mg/kg/day of BIA 10-2474, 24 h, repeated 5 days	–	concentration	8.7 ± 0.1 ng/g
COc1ncc(-c2nc3c(n2C(C)C)[C@H](c2ccc(Cl)cc2)N(c2cc(Cl)cn(C)c2=O)C3=O)c(OC)n1	–	–	human patients, plasma	oral, 150 mg	–	geometric mean Cmax	1500 ng/mL
O=C1CCCCN1c1ccc(CO[C@@H]2COc3nc([N+](=O)[O-])cn3C2)cc1	–	–	aqueous buffer	pH 7.4	–	aqueous solubility	28.7 µg/mL (≈ 77.1 µM)
NC(CO)(CO)CCc1ccc(Sc2cccc(OCc3ccccc3)c2)cc1Cl	–	–	human, supine	oral, 3 mg, 0 to 312 h, together with: cyclosporin 100 mg	–	pulse rate AUEC, median	18700 h×bpm
C[C@H](CCC(=O)NCCS(=O)(=O)O)[C@H]1CC[C@H]2[C@@H]3[C@H](O)C[C@@H]4C[C@H](O)CC[C@]4(C)[C@H]3C[C@H](O)[C@]12C	–	–	human, plasma	endogenous control diurnal	relative to: daily mean concentration	relative peak deviation	114 ± 13%
COc1ccc(-n2c(SCC(N)=O)nnc2-c2cccs2)cc1	Cyclin-dependent kinase 2 (CDK2, Homo sapiens, UniProt P24941)	binding	–	–	–	Kd	> 100000 nM
Cn1cc(-c2ccc(-c3cncc(Cl)c3N3CCC4(CCNC4=O)CC3)cc2)cn1	COLO 205	microarray, measured: ATF3	–	concentration not given, 2 h, gene set ATF-3	relative to: untreated cells	fold change in expression	1.65
CC(C)[C@H](C(=O)Nc1ccc(C(=O)NO)cc1)c1ccccc1	–	–	whole blood	1000 ng/mL, 5 h, 4 °C, stability on ice	–	measured concentration	1050 ng/mL

SMILES	target or system	test	system	setting	scale	endpoint	value
O=C1NCCc2nc(OCc3cccc(F)c3)ccc21	–	measured: Tremors	Sprague-Dawley rat male	oral, 100 mg/kg, 30 min	direction not given	Irwin test score	0
C[C@@H]1COCCN1c1cc([C@]2(O)C[C@H]3CC[C@@H](C2)O3)c2cnn(-c3cc[nH]n3)c2n1	–	–	mouse, whole blood and plasma	–	–	blood-to-plasma ratio	0.6
O=C(OC(C(F)(F)F)C(F)(F)F)N1CCN(Cc2cccc(Oc3ccccc3)c2)CC1	–	PET blocking study	rhesus monkey, brain FCX	0.03 mg/kg, compound pretreatment, together with: [18F]T-401 tracer	–	k2	0.024 min⁻¹
CCc1cc(C(=O)NC)c2nccc(N3CCc4c(cc(Cn5ccnc5)cc4-c4cn(C)nc4C(F)(F)F)C3=O)c2c1	–	–	Sprague Dawley rat	oral, 50 mg/kg once daily, 7 days	relative to: vehicle	spleen weight change	-7.94%
O=C(O)CCC(=O)O.[2H]C([2H])([2H])Oc1cc(C)c2[nH]ccc2c1CN1CC[C@@H](C2CC2)C[C@H]1c1ccc(C(=O)O)cc1	–	LC-MS/MS, geometric mean	human, plasma	400 mg, single dose, fasting	–	Cmax	4510 ng/mL
Cc1cnc(NS(=O)(=O)c2c(C)[nH]c(C)c2C(=O)N2CCC(F)(F)C2)cc1Cl	D(3) dopamine receptor (DRD3, Homo sapiens, UniProt P35462)	β-arrestin recruitment, antagonist, PathHunter	–	together with: dopamine EC80	–	IC50	> 100 µM
CC(C)C[C@H](NC(=O)C[C@H](O)[C@H](CC(C)C)NC(=O)[C@H](Cc1c[nH]cn1)NC(=O)CNC(=O)[C@@H](NC(=O)[C@H](C)NC(=O)[C@H](Cc1c[nH]c2ccccc12)NC(=O)[C@H](CCC(N)=O)NC(=O)[C@@H](Cc1ccccc1)NC(=O)COCCOCCNC(=O)CCC(C(=O)O)N1CCN(CC(=O)O)CCN(CC(=O)O)CC1)C(C)C)C(N)=O (some centres unmarked) [lutetium-177 labelled]	–	–	female BALB/c nu/nu mice, kidneys	intravenous, 50 pmol, 24 h	–	tissue uptake	2.1 ± 0.5 %ID/g
O=C(c1cccnc1-c1ccncc1)N1CCC(O)(Cc2ccccc2)CC1	–	–	healthy Japanese adults, plasma	oral, 100 mg twice daily, day 7	–	terminal half-life	218 min
C=CCN1CC(=O)N2[C@@H](Cc3ccc(O)cc3F)C(=O)N(Cc3cccc(N4CC(N5CCN(CC)CC5)C4)n3)C[C@@H]2N1C(=O)NCc1ccccc1	–	–	advanced solid tumour patients	oral, 20 mg twice daily, grade ≥3, dose-escalation	–	treatment-related vomiting	0%
CC(C)(C(=O)N1CCOc2c(C#N)cncc2C1)C(F)F	–	measured: Arthralgia	human	oral, 15 mg twice daily, 14 days, multiple ascending dose	–	subjects with adverse event	12.5%
CC[C@@H]([C@H](C)O)n1ncn(-c2ccc(N3CCN(c4ccc(OC[C@@H]5CO[C@@](Cn6cncn6)(c6ccc(F)cc6F)C5)cc4)CC3)cc2)c1=O	–	–	rat plasma	800 ng/mL, 3 h, room temperature	relative to: nominal concentration	stability relative error	-1.1%
CCCCCCCCCCCCCCCC(=O)N[C@@H](CCC(=O)NCCCC[C@@H]1NC(=O)[C@H]([C@@H](C)CC)NC(=O)[C@@H](NC(=O)[C@@H]2CCCN2C(=O)[C@H](Cc2ccccc2)NC(=O)[C@H](Cc2c[nH]cn2)NC(=O)[C@@H](NC(=O)[C@H](CC(=O)O)NC(=O)CC(C)C)[C@@H](C)O)CSSC[C@@H](C(=O)N[C@@H](CCCCN)C(N)=O)NC(=O)CNC(=O)[C@H](CCCCN)NC(=O)[C@H](CO)NC(=O)[C@H](CCCNC(=N)N)NC(=O)[C@@H]2CCCN2C(=O)[C@H](CCC(=O)O)NC(=O)[C@H](Cc2ccccc2)NC1=O)C(=O)O	–	–	healthy volunteers, plasma	subcutaneous, 20 mg	relative to: parent plus metabolites	AUC(0-inf) share of total	61.7 ± 4.53%
Oc1ccc(/C=C/c2cc(O)cc(O)c2)cc1	–	–	rat, azoxymethane-injected, blood at sacrifice	10 mg/kg	–	glucose	155 mg/dL and 195 mg/dL and 184 mg/dL
C[C@@H](Oc1ccc(S(C)(=O)=O)cc1C(=O)N1C[C@@H]2C[C@]2(c2cc(C(F)(F)F)on2)C1)C(F)(F)F	–	measured: Cmax	healthy human volunteers	oral, 10 mg	relative to: fed over fasted	fed over fasted ratio	118%
O=C(Cc1ccc2ccccc2c1)Nc1cc(C2CCC2)[nH]n1	–	–	mouse plasma	0.5 ng/mL, -80 °C, freeze-thaw stability, together with: 3 freeze-thaw cycles	–	measured mean concentration	0.52 ± 0.03 ng/mL
C[C@@H](Oc1cc(-c2cnn(C3CCNCC3)c2)cnc1N)c1c(Cl)ccc(F)c1Cl	–	–	human, plasma	recommended dose, total	–	average steady-state concentration	719 nmol/L
C[C@@H](Nc1cc(F)cc(F)c1)c1cc(C(=O)N(C)C)cc2c(=O)cc(N3CCOCC3)oc12	–	CTCAE v4, measured: maculopapular rash	patients with advanced solid tumours	oral, dose not given, phase I dose expansion	–	patients discontinuing for AE	0%
CC(=O)N(C(=O)c1cc(C(F)(F)F)cc(C(F)(F)F)c1)c1ccccc1	–	reaction with N-acetyl-lysine, HPLC-MS	–	pH 10.2, together with: N-α-acetyl-lysine	–	pseudo-first-order rate constant	2.6 h⁻¹
CNC(=O)c1cc(Oc2ccc(NC(=O)Nc3ccc(Cl)c(C(F)(F)F)c3)cc2)ccn1	–	–	NOD-SCID mouse, serum	ip, 30 mg/kg	–	ALT	61.3 ± 54.5 U/L

For quick reference, copied from above:
SMILES	target or system	test	system	setting	scale	endpoint	value
CN(C(=O)n1cnc(-c2cccnc2)c1)C1CCCCC1	–	–	Wistar rat, midbrain	oral, 10 mg/kg/day of BIA 10-2474, 24 h, repeated 5 days	–	concentration	8.7 ± 0.1 ng/g
COc1ncc(-c2nc3c(n2C(C)C)[C@H](c2ccc(Cl)cc2)N(c2cc(Cl)cn(C)c2=O)C3=O)c(OC)n1	–	–	human patients, plasma	oral, 150 mg	–	geometric mean Cmax	1500 ng/mL
O=C1CCCCN1c1ccc(CO[C@@H]2COc3nc([N+](=O)[O-])cn3C2)cc1	–	–	aqueous buffer	pH 7.4	–	aqueous solubility	28.7 µg/mL (≈ 77.1 µM)
